Results collected from several papers.
Lines come from different studies, so protocols differ.
Cell line: SK-MEL-28

Compound	assay	conditions	scale	quantity	result
N#Cc1c(-c2ccc(Cl)cc2)cc(-c2cccc3ccccc23)n2c(Cc3ccccc3)nnc12	cell growth or viability, MTT	72 h	–	IC50	1.58 µM
COc1ccc(C2=Nn3c(NN=C4C(=O)N(C)c5ccc(Br)cc54)nnc3SC2)cc1	cell growth or viability, SRB	10 µM	–	inhibition	15%
CC/C=C\C/C=C\C/C=C\C/C=C\C/C=C\C/C=C\CCC(=O)Nc1ccn(C2OC(CO)C(O)C2(F)F)c(=O)n1 (stereo not shown)	NCI60 screen	–	–	TGI	23.3 µM
CCCCCCCCC1(CCCCCCCC)c2cc(C#Cc3cc4[n+]5c(c3)-c3cccc[n+]3[Ir-3]536([n+]5ccccc5-4)[n+]4ccccc4-c4cc(-c5ccccc5)cc([n+]43)-c3cccc[n+]36)ccc2-c2ccc(C#Cc3cc4[n+]5c(c3)-c3cccc[n+]3[Ir-3]536([n+]5ccccc5-4)[n+]4ccccc4-c4cc(-c5ccccc5)cc([n+]43)-c3cccc[n+]36)cc21.F[P-](F)(F)(F)(F)F.F[P-](F)(F)(F)(F)F.F[P-](F)(F)(F)(F)F.F[P-](F)(F)(F)(F)F.F[P-](F)(F)(F)(F)F.F[P-](F)(F)(F)(F)F	–	red light 100 J/cm2	reference: dark EC50 over red-light EC50	phototherapeutic index	1
N#Cc1c(-c2ccc(Cl)cc2)cc(-c2cccc3ccccc23)nc1NNC(=O)Cc1ccccc1	cell growth or viability, MTT	72 h	–	IC50	0.255 µM
CC(=O)OC[C@H]1O[C@@H](Sc2sc(C(=O)c3ccc(Br)cc3)c(N)c2-c2nc3ccccc3s2)[C@H](OC(C)=O)[C@@H](OC(C)=O)[C@H]1OC(C)=O	SRB	10 µM, 48 h	reference: untreated	growth	104%
CCCCCCCCC1(CCCCCCCC)c2cc(-c3cc4[n+]5c(c3)-c3cccc[n+]3[Ir-3]536([n+]5ccccc5-c5cc(-c7ccccc7)cc([n+]53)-c3cccc[n+]36)[n+]3ccccc3-4)ccc2-c2ccc(-c3cc4[n+]5c(c3)-c3cccc[n+]3[Ir-3]536([n+]5ccccc5-c5cc(-c7ccccc7)cc([n+]53)-c3cccc[n+]36)[n+]3ccccc3-4)cc21.F[P-](F)(F)(F)(F)F.F[P-](F)(F)(F)(F)F.F[P-](F)(F)(F)(F)F.F[P-](F)(F)(F)(F)F.F[P-](F)(F)(F)(F)F.F[P-](F)(F)(F)(F)F	–	red light 100 J/cm2	reference: dark EC50 over red-light EC50	phototherapeutic index	1.4
CC(C)(C)c1nc(-c2cccc(NS(=O)(=O)c3c(F)cccc3F)c2F)c(-c2ccnc(N)n2)s1.Cc1[nH]c2ccccc2c1CCNCc1ccc(/C=C/C(=O)NO)cc1	flow cytometry	concentration not given, 48 h, concentration about IC50	–	cells in G0/G1 phase	8.11%
FC(F)(F)c1ccnc(-c2cc(C(F)(F)F)ccn2)c1.FC(F)(F)c1ccnc(-c2cc(C(F)(F)F)ccn2)c1.[Cl-].[Cl-].[Ru+2].c1csc(-c2ccc(-c3ccc(-c4ccc(-c5nc6c7cccnc7c7ncccc7c6[nH]5)s4)s3)s2)c1	cell viability	normoxia, with: visible light	reference: dark EC50 over light EC50	mean phototherapeutic index	6500
CCCCCCCCC1(CCCCCCCC)c2cc(-c3cc4[n+]5c(c3)-c3cccc[n+]3[Ir-3]536([c]5ccccc5-c5cc(-c7ccccc7)cc([n+]53)-c3cccc[c]36)[n+]3ccccc3-4)ccc2-c2ccc(-c3cc4[n+]5c(c3)-c3cccc[n+]3[Ir-3]536([c]5ccccc5-c5cc(-c7ccccc7)cc([n+]53)-c3cccc[c]36)[n+]3ccccc3-4)cc21.F[P-](F)(F)(F)(F)F.F[P-](F)(F)(F)(F)F	–	red light 100 J/cm2	reference: dark EC50 over red-light EC50	phototherapeutic index	0.82
FC(F)(F)c1ccnc(-c2cc(C(F)(F)F)ccn2)c1.FC(F)(F)c1ccnc(-c2cc(C(F)(F)F)ccn2)c1.[Cl-].[Cl-].[Ru+2].c1csc(-c2nc3c4cccnc4c4ncccc4c3[nH]2)c1	cell viability	normoxia, with: green light 523 nm, 100 J/cm2	reference: dark EC50 over light EC50	phototherapeutic index	2
CCC(=C(c1ccc(Cl)cc1)c1ccc(OCCCN(C)C)cc1)c1ccc(OC)cc1	cell growth or viability, SRB	–	–	GI50	1.33 µM
FC(F)(F)c1ccnc(-c2cc(C(F)(F)F)ccn2)c1.FC(F)(F)c1ccnc(-c2cc(C(F)(F)F)ccn2)c1.[Cl-].[Cl-].[Ru+2].c1csc(-c2ccc(-c3ccc(-c4nc5c6cccnc6c6ncccc6c5[nH]4)s3)s2)c1	cell viability	normoxia, with: green light 523 nm, 100 J/cm2	reference: dark EC50 over light EC50	phototherapeutic index	731
CC(=O)OC[C@H]1O[C@@H](Sc2sc(C(=O)c3ccc(C)cc3)c(N)c2-c2nc3ccccc3s2)[C@H](OC(C)=O)[C@@H](OC(C)=O)[C@@H]1OC(C)=O	SRB	10 µM, 48 h	reference: untreated	growth	76.4%
COc1ccc(C2=Nn3c(NN=C4C(=O)N(Cc5ccccc5)c5ccc(Cl)cc54)nnc3SC2)cc1	cell growth or viability, SRB	10 µM	–	inhibition	12%
FC(F)(F)c1ccnc(-c2cc(C(F)(F)F)ccn2)c1.FC(F)(F)c1ccnc(-c2cc(C(F)(F)F)ccn2)c1.[Cl-].[Cl-].[Ru+2].c1cnc2c(c1)c1nc[nH]c1c1cccnc12	cell growth or viability, resazurin	dark	–	EC50	> 300 µM
